# Measured values from different studies.
# Lines come from different studies, so protocols differ.
# Organism: Pseudomonas aeruginosa
Structure (SMILES),test,test system,setting,MIC
CCCCCCCC[C@@H]1NC(=O)[C@@H](Cc2ccccc2)NC(=O)[C@H](CCN)NC(=O)[C@@H](NC(=O)[C@H](CCN)NC(=O)[C@@H](NC(=O)[C@H](CCN)NC(=O)c2ccc(-c3ccccc3)cc2)[C@@H](C)O)CCNC(=O)[C@H]([C@@H](C)O)NC(=O)[C@H](CCN)NC(=O)[C@H](CCN)NC1=O,broth microdilution,"ATCC 27853, polymyxin-susceptible",,4 µg/mL
CC(C)[C@@H]1NC(=O)[C@@H]2CCCN2C(=O)[C@@H](C)NC(=O)[C@H](CO)NC(=O)[C@H](C)NC(=O)[C@H](C(C)(C)C)NC(=O)[C@H](CCO)NC(=O)[C@H](Cc2c[nH]c3ccccc23)NC(=O)[C@H](CCO)NC(=O)[C@@H](CCN)NC(=O)[C@H](CCC(N)=O)NC(=O)[C@H](CCN)NC(=O)[C@H](Cc2ccc(O)cc2)NC(=O)[C@H]([C@@H](C)O)NC1=O,broth microdilution,M-120,"16 h, 0.002% polysorbate-80",> 64 µg/mL
CC(C)C[C@@H]1NC(=O)CSC[C@@H](C(=O)N[C@@H](CCCCN)C(N)=O)NC(=O)[C@H](CC(C)C)NC(=O)[C@H](CCCCN)NC(=O)[C@H](CCCCN)NC(=O)[C@@H]2CSCC(=O)N[C@@H](CC(C)C)C(=O)N[C@@H](CC(C)C)C(=O)N[C@@H](CCCCNC(=O)[C@H](CC(C)C)NC1=O)C(=O)N[C@@H](CCCCN)C(=O)N[C@@H](CC(C)C)C(=O)N[C@@H](CCCCN)C(=O)N2,,PAO1,18 h,> 256 µg/mL
CC(C)C[C@H](NC(=O)[C@H](C)NC(=O)CNC(=O)[C@@H](NC(=O)[C@@H](NC(=O)[C@H](CCCCN)NC(=O)[C@H](CCCCN)NC(=O)[C@H](CC(C)C)NC(=O)[C@H](CC(C)C)NC(=O)[C@H](CCCCN)NC(=O)[C@H](CC(C)C)NC(=O)[C@H](CC(C)C)NC(=O)[C@@H](N)CCCCN)C(C)C)C(C)C)C(=O)NCC(N)=O,,"ATCC 19606, CAMHB","18 h, 37 °C",> 22 µM
CCCCCCCC(O)CC(=O)N[C@H](CCN)C(=O)N[C@H]1CCNC(=O)[C@H](CC(C)C)NC(=O)[C@H](CCN)NC(=O)[C@H](CCN)NC(=O)[C@H](CC(C)C)NC(=O)[C@@H](CC(C)C)NC(=O)[C@H](CCN)NC1=O (stereo partly drawn),broth microdilution,"ATCC 27853, polymyxin susceptible, CAMHB","18 h, 37 °C",2 µg/mL
CC[C@H](C)[C@H](NC(=O)[C@@H](NC(=O)[C@H](CCCCN)NC(=O)CNC(=O)[C@@H](NC(=O)[C@@H](NC(=O)[C@H](CO)NC(=O)[C@@H](NC(=O)[C@@H](NC(=O)[C@@H]1CCCN1C(=O)[C@@H](NC(=O)[C@@H](NC(=O)CN)[C@@H](C)CC)[C@@H](C)CC)[C@@H](C)CC)[C@@H](C)CC)[C@@H](C)CC)[C@@H](C)CC)[C@@H](C)CC)C(N)=O,broth microdilution,,,> 30 µM
CC(C)[C@H](NC(=O)[C@H](CCCNC(=N)N)NC(=O)[C@H](CCCNC(=N)N)NC(=O)[C@@H](NC(=O)[C@H](C)NC(=O)[C@H](CC(N)=O)NC(=O)[C@H](CCCNC(=N)N)NC(=O)[C@@H](NC(=O)[C@H](CCCNC(=N)N)NC(=O)[C@H](CCCNC(=N)N)NC(=O)[C@@H](NC(=O)[C@@H](NC(=O)[C@H](CCCNC(=N)N)NC(=O)[C@H](CCCNC(=N)N)NC(=O)[C@H](Cc1c[nH]c2ccccc12)NC(=O)[C@H](Cc1c[nH]c2ccccc12)NC(=O)CN)[C@@H](C)O)C(C)C)C(C)C)C(C)C)C(=O)O,,ATCC 27853,"18 h, 37 °C",8 µg/mL
CCCCCCCCCCCCCC(=O)N[C@H](CCN)C(=O)N[C@@H]1C(=O)N[C@@H](CCN)C(=O)N[C@@H](CC(C)C)C(=O)N[C@@H](CCN)C(=O)N[C@H](Cc2ccccc2)C(=O)N[C@@H](CC(C)C)C(=O)N[C@@H](CCN)C(=O)N[C@H](Cc2ccc(O)cc2)C(=O)N[C@@H](C(C)C)C(=O)N[C@@H](CC(=O)O)C(=O)O[C@@H]1C,broth microdilution,BNCC 186070,,8 µg/mL
CC[C@H](C)[C@H](NC(=O)[C@H](CCCCN)NC(=O)[C@H](CCC(=O)O)NC(=O)[C@H](CCCCN)NC(=O)[C@H](CO)NC(=O)[C@H](CCCCN)NC(=O)[C@H](CCCNC(=N)N)NC(=O)[C@H](Cc1ccccc1)NC(=O)[C@H](Cc1ccccc1)NC(=O)[C@H](CC(=O)O)NC(=O)CNC(=O)[C@H](CC(C)C)NC(=O)[C@@H](N)CC(C)C)C(=O)NCC(=O)N[C@@H](CCCCN)C(=O)N[C@@H](CCC(=O)O)C(=O)N[C@@H](Cc1ccccc1)C(=O)N[C@@H](CCCCN)C(=O)N[C@@H](CCCNC(=N)N)C(=O)N[C@H](C(=O)N[C@H](C(=O)N[C@@H](CCC(N)=O)C(=O)N[C@@H](CCCNC(=N)N)C(=O)N[C@H](C(=O)N[C@@H](CCCCN)C(=O)N[C@@H](CC(=O)O)C(=O)N[C@@H](Cc1ccccc1)C(=O)N[C@@H](CC(C)C)C(=O)N[C@@H](CCCNC(=N)N)C(=O)N[C@@H](CC(N)=O)C(=O)N[C@@H](CC(C)C)C(=O)N[C@H](C(=O)N1CCC[C@H]1C(=O)N[C@@H](CCCNC(=N)N)C(=O)N[C@H](C(=O)N[C@@H](CCC(=O)O)C(=O)N[C@@H](CO)C(=O)O)[C@@H](C)O)C(C)C)[C@@H](C)CC)C(C)C)[C@@H](C)CC,,"PAO1 vacJ mutant, RPMI with 5% LB",,8 µM
CCCCCCCCCC(=O)NCCCC[C@H](NC(=O)[C@H](CCCCN)NC(=O)[C@@H]1CSCC(=O)N[C@@H](CCCCN)C(=O)N[C@@H](CC(C)C)C(=O)N[C@@H](CCCCN)C(=O)N[C@H]2CCCCNC(=O)[C@H](CCCCN)NC(=O)[C@H](CC(C)C)NC(=O)[C@H](CCCCN)NC(=O)CSC[C@H](NC(=O)[C@H](CC(C)C)NC(=O)[C@H](CC(C)C)NC(=O)[C@H](CCCCN)NC2=O)C(=O)N[C@@H](CC(C)C)C(=O)N[C@@H](CC(C)C)C(=O)N[C@@H](CC(C)C)C(=O)N1)C(N)=O,,PAO1,18 h,32 µg/mL
CCCCCCCC/C=C\CCCCc1cc(=O)c2ccccc2n1C,broth microdilution,Luria-Bertani broth,,> 256 µg/mL
CC[C@H](C)[C@H](NC(=O)[C@H](Cc1c[nH]cn1)NC(=O)[C@H](CCCCNC(=O)[C@@H](NC(=O)[C@H](CCCCN)NC(=O)CSC[C@H](NC(=O)[C@H](Cc1ccccc1)NC(=O)[C@H](CCCCNC(=O)[C@H](CC(C)C)NC(=O)[C@H](CCCCN)NC(=O)[C@H](CCCCN)NC(=O)C[C@@H]1O[C@@H](C)[C@@H](O)[C@@H](O)[C@@H]1O)NC(=O)[C@H](CC(C)C)NC(=O)[C@H](CCCCN)NC(=O)[C@H](CCCCN)NC(=O)CCS[C@@H]1O[C@H](CO)[C@H](O)[C@H](O)[C@H]1O)C(N)=O)[C@@H](C)CC)NC(=O)[C@@H](NC(=O)[C@H](CCCCN)NC(=O)CSC[C@H](NC(=O)[C@H](Cc1ccccc1)NC(=O)[C@H](CCCCNC(=O)[C@H](CC(C)C)NC(=O)[C@H](CCCCN)NC(=O)[C@H](CCCCN)NC(=O)C[C@@H]1O[C@@H](C)[C@@H](O)[C@@H](O)[C@@H]1O)NC(=O)[C@H](CC(C)C)NC(=O)[C@H](CCCCN)NC(=O)[C@H](CCCCN)NC(=O)CCS[C@@H]1O[C@H](CO)[C@H](O)[C@H](O)[C@H]1O)C(N)=O)[C@@H](C)CC)C(N)=O,,"PAO1, LB medium",,> 64 µM
